Experimental data from different studies.
Parts stem from different laboratories: compare values within a part only.
Sequence of UniProt P11802 (whole entry, looked up): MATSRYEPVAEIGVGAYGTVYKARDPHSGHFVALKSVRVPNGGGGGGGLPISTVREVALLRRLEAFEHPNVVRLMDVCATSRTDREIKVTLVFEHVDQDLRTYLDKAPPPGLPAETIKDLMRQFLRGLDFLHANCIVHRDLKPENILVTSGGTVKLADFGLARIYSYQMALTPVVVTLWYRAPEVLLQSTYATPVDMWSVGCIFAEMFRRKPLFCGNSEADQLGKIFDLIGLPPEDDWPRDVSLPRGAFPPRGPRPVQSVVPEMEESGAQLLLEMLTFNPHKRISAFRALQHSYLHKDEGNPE

Set 1
Target: Phosphate system positive regulatory protein PHO4, full length, GST-tagged (PHO4, Saccharomyces cerevisiae, UniProt P07270, residues 1-312)
Technique: competition protein-binding microarray
Molecule type: double-stranded DNA, one strand shown
Sample: in vitro
Concentration: 2 µM
Setting: whole 60-bp probe, lowest competitor level
Added: Cbf1 competitor, 0.05 µM
Reading: higher = stronger binding
Constant ends, left off below: … GTCTTGATTCGCTTGACGCTGCTG
Target sequence (chain): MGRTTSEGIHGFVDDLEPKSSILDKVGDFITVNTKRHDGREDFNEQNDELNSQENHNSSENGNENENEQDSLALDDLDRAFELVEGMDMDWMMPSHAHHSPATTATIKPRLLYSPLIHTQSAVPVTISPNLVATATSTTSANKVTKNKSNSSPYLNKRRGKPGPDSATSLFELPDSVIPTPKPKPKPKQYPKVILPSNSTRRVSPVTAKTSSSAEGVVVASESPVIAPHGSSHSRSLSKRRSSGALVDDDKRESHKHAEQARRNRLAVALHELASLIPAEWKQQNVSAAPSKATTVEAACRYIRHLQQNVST
Oligonucleotide	fluorescence intensity [a.u.]
CATGATAATCTGCAACACAATCAAGGCCAGATTACT	3570
CATACCCAACCTTGTCACACGACTTAAGATATTTGT	6820
CGTCCTAGTGATTGTTCTGTGGGTGCCATGAGGAAG	6270
AAGGTTGTTAACTTCCACGTTCAGGTTATTCACTAC	8850
GGCCGCCCATGGCCGCATGTGAGCAACGTCGACATT	6490
CTAACGAAGGTTTGTTAAGTGGGTGACAAGCCAAGT	4420
GTCTTGTCTCATTGTCACAAAACTTTCCCCACTTCA	3990
CGGTAAATGAATCAGCATGTGAATTTTTCTAGAAAA	5610

Set 2
Target: TATA-box-binding protein 1 (TBP1, Arabidopsis thaliana, UniProt P28147, residues 1-200, full length assumed)
Technique: protein-binding microarray
Molecule type: double-stranded DNA, one strand shown
Sample: in vitro
Concentration: not given
Setting: k-mer, scored over probes, only values ≥0.25
Reading: higher = stronger binding
Construct (chain): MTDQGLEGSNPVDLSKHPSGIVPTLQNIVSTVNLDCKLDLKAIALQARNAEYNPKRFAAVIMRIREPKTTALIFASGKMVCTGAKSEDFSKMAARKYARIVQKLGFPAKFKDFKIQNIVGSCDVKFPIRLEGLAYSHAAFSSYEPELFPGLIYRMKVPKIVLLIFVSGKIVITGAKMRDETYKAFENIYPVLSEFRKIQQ
Oligonucleotide	E-score
TAAATAA	0.456
TAGTAAA	0.251
GACTATA	0.338
ACCTTAA	0.26
GTACTTA	0.279
GCCTTTA	0.271
ATATCAG	0.316
ATACTAT	0.296

Set 3
Target: Hepatocyte nuclear factor 3-alpha (Foxa1, Mus musculus, UniProt P35582, residues 1-468, full length assumed)
Sequence of UniProt P35582 (whole entry, looked up): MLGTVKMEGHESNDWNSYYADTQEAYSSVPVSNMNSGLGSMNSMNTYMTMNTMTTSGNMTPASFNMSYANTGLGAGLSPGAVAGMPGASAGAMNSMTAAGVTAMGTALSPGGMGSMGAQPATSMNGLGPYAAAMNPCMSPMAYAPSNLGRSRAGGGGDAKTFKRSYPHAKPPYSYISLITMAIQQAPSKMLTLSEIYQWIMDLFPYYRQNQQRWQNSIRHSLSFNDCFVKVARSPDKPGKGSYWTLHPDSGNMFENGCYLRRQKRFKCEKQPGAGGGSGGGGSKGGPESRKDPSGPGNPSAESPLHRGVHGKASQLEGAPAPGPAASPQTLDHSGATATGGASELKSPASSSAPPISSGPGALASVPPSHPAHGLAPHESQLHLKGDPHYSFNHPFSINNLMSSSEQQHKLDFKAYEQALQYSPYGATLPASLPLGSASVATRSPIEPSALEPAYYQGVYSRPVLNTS
Technique: EMSA with sequencing
Molecule type: double-stranded DNA, one strand shown
Sample: in vitro
Concentration: 10 and 20 nM
Setting: whole designed probe, mean of two concentrations, ends assumed
Baseline: negative control set to 0
Reading: higher = stronger binding
Constant ends, left off below: GTGAGCGGTGCCCATTGATGGGGAAC … TTTCACTGGGATCGTGGGGAC
Oligonucleotide	normalised bound fraction [ratio]
ATCCACGAACCTGGCCCTGTCTGGTAACCACAGTGAACCATCGCAAGATACAGCACTATGTGCCCAGTTGGGCTGGTAATGTCACACAAATGTGTCAACACTGGCACATCCTTAATGACTCACAAGTGTACTTGTTTTTGGAGAGGGACTAGACCTTCATCCTTGAGGTGAAGAAGATTTTCTCTCCAGGGTG	0.0519
ATTCATGTGAAAATTACGATAATAACACATATCTCACCCAGAAGAAAAAAAAATTGTGAAGAAACTTAGAAGTTCTAAAAATATAAGGTATAATGTAAACATGAATAACAATAACATTTATAGCTTGATGTTTTTTCAGGCCTTGTAATTTTCAAAATATGTGTATATAGTTAGCTGATTAGAAGAAAATATG	0.371
GGTGTGACATATTCTCACTGCTATATATCAAAGCGTTAATGGTGGAATTTTGTCTTTGTAAAGCATTTGGAGTTATTTTCGAGAAAAGCGCTGTGTAAACAAGGAATTTATTTTAAGAACAACTCCATGTTTGTTGAGATACTTGTTTAGTTATTATGGCTTGGTCTAGTATCTGAAAATAGAATCAAAGTAA	0.462
TCCTGCTTCTGTTGGCTGTTTCTTCTCTTTGGAGGGGGTCCCATTTCCCCACCTCTTTGCATACGCTGTAATGTTTTGTTGGATACTGCATGTAGATTATTTAGAGCAGCAGTTCAGACTGAAGTAGGAGCTGTCATCCTGGAGGGGCTCCCTGCCTGTGTTGGGCATGTGGGGGGCTGCTCAGCCAGATCCA	-0.0621
TTATGATCTGAGTATATATAGTAAGTACCTCCCCTTTCAGGGTAAGGCAGTAGGTAATGGTGAACAGCGTAGCAAAAGGTGACTCAGGTTGAGTAAACAACACCAAGCATATCTGACTCAAGGAATGCTTCAGAGGCCAGGGGTGCATGCCTGTAATCCCAGCACCTTGGAAGGCTGACACAGGAGGATCACT	0.39
ATCTTCCCCCTCTTCCTTGCCCCACCAGCTCACCTACGGGGGTTATTTGCAGATAGGAAAATAAATAAAGCCGGCATTCGTTAACCCTCTTCTGGCGCAAACTGCTGTTTGCTCTGCATCTAACATGGTCCTTACGCGACGCCAGGCTCCGGGAGAGCAAAGCACCGTGTCAGGCGCATGATCCGGGCTCGCC	0.348
GATAGAGAAGATGTTTCTAAAGGGACAAGAAAGAGTTGGATTTCAGAAAACAAATTACATATATCTAGTCCTATATGCCTTTAAAAAATTCTTGTTTACTTTTCTTTTCTGTCGTACTACACAGAGCCTGTGTAGTAAGTTTTCCAGGTCTGTTTTTTTGTTGTTGCTGTTGTTTTGTTTTTAATTGGATCAT	0.465
AATCTGTGAGGATTTTTTGTTTAGAAATAAACAAATTACCCACTTCTCACTATCTTTTTGCACTAATACCTTGAAAAAATGTAAATTGGACAGTGTAATCTTGCAAAATTGTTGGCATGTAGGAGAGAATTTTTCTACTTTTCTAAAGATTCAAGACTCGTTTTTGAGTCCTAAAAACAAACACATTAAGGAC	0.413

Mixed results
SMILES	target	test	setting	how to read	endpoint	result
CN([C@@H](Cc1ccc(OS(=O)(=O)c2cccc3cnccc23)cc1)C(=O)N1CCN(c2ccccc2)CC1)S(=O)(=O)c1cccc2cnccc12	Cyclin-dependent kinase 4, with cyclin D3 (CDK4, Homo sapiens, UniProt P11802)	enzyme activity, inhibitor	0.5 µM	baseline: control	remaining activity	97.8%
